Measurements of several laboratories.
Protocols differ between the studies behind these lines. Several values in a cell are separate wells, animals, samples, runs or records. ± marks the error that the study gave.

F[P-](F)(F)(F)(F)F.F[P-](F)(F)(F)(F)F.[Ru+2].c1ccc(-c2ccccn2)nc1.c1ccc(-c2ccccn2)nc1.c1csc(-c2ccc(-c3cc4cccnc4c4ncccc34)s2)c1
EC50 (HL-60; cell viability, resazurin; 16 h drug-to-light interval, together with: red light 625 nm, 100 J/cm2): 13.5 µM and ~14 µM

N.N.[Cl][Pt][Cl]
EC50 (HAP1 POLH-deficient; cell viability; together with: 0.1 µM): 0.1 µM

NC(=O)CBr
EC50 (SW480 expressing Rad51-EGFP; Rad51 nuclear foci; 24 h; baseline: 10 µM camptothecin): 5.69 µM

CC[C@H](C)[C@H](NC(=O)CN)C(=O)NCC(=O)N[C@@H](CC(=O)O)C(=O)N1CCC[C@H]1C(=O)N[C@H](C(=O)N[C@H](C(=O)N[C@H]1CSSC[C@@H]2NC(=O)[C@H](CCCCN)NC(=O)[C@H]([C@@H](C)O)NC(=O)CNC(=O)[C@@H]3CCCN3C(=O)[C@H](CC(C)C)NC(=O)CNC(=O)[C@@H]3CSSC[C@H](NC(=O)[C@H]([C@@H](C)CC)NC(=O)[C@H](C)NC(=O)CNC(=O)[C@H](CO)NC(=O)[C@H](CCCCN)NC(=O)[C@H](CC(C)C)NC1=O)C(=O)N[C@@H](Cc1c[nH]cn1)C(=O)N1CCC[C@H]1C(=O)N[C@@H](C(C)C)C(=O)N[C@@H](Cc1ccccc1)C(=O)N[C@@H](CSSC[C@@H](C(=O)N[C@@H](CCCCN)C(=O)N[C@@H](CCCCN)C(=O)N1CCC[C@H]1C(=O)O)NC2=O)C(=O)N1CCC[C@H]1C(=O)N[C@@H](CCCNC(=N)N)C(=O)N[C@@H](CCCNC(=N)N)C(=O)N[C@@H](Cc1ccc(O)cc1)C(=O)N[C@@H](CCCCN)C(=O)N[C@@H](CCC(N)=O)C(=O)N[C@@H]([C@@H](C)CC)C(=O)NCC(=O)N[C@@H]([C@@H](C)O)C(=O)N3)[C@@H](C)O)C(C)C
EC50 (LAD2; calcium influx): 7 ± 6.3 µM

eburicol
EC50 (KB cells; SRB; 3 days): > 20 µM

O=C(NC(=O)c1c(F)cccc1F)Nc1cc(Cl)c(F)c(Cl)c1F
EC50 (Caco-2; viability, MTT; 168 h): 471 ± 37.6 µM

CC[C@H](C)[C@H](NC(=O)[C@H](Cc1c[nH]c2ccccc12)NC(=O)[C@H](CCCCN)NC(=O)[C@@H](NC(=O)[C@H](CC(C)C)NC(=O)[C@H](CCCCN)NC(=O)CNC(=O)[C@@H](NC(=O)[C@@H](NC(=O)[C@H](CO)NC(=O)[C@@H](NC(=O)[C@@H](NC(=O)[C@H](CCCCN)NC(=O)[C@H](CCC(N)=O)NC(=O)[C@H](C)NC(=O)[C@H](CCSC)NC=O)[C@@H](C)CC)[C@@H](C)CC)[C@@H](C)O)[C@@H](C)CC)C(C)C)C(=O)N[C@H](C(=O)N[C@@H](CCCCN)C(=O)N[C@H](C(=O)N[C@H](C(=O)N[C@@H](CC(N)=O)C(=O)N[C@@H](CCCCN)C(=O)N[C@@H](Cc1ccccc1)C(=O)N[C@H](C(=O)N[C@@H](CCCCN)C(=O)N[C@@H](CCCCN)C(=O)O)[C@@H](C)O)C(C)C)[C@@H](C)O)[C@@H](C)CC (racemic)
EC50 (sheep erythrocytes; turbidity; pH 7.5): 4.7 ± 1 µM

N#Cc1nn(-c2c(Cl)cc(C(F)(F)F)cc2Cl)c(N)c1[S+]([O-])C(F)(F)F (stereo not drawn)
EC50 (Caco-2; viability, MTT; 72 h): 24.1 ± 0.4 µM

CSCC[C@H](NC(=O)[C@H](CCCCN)NC(=O)[C@H](CCCCN)NC(=O)[C@@H](NC(=O)[C@H](CCCCN)NC(=O)[C@H](CC(=O)O)NC(=O)[C@H](Cc1c[nH]c2ccccc12)NC(=O)[C@H](CC(C)C)NC(=O)[C@H](CCC(=O)O)NC(=O)[C@H](CCCCN)NC(=O)[C@@H](NC(=O)[C@@H](N)Cc1ccccc1)C(C)C)C(C)C)C(=O)NCC(=O)N[C@@H](CO)C(=O)N[C@@H](C)C(=O)N[C@@H](C)C(=O)N[C@@H](Cc1c[nH]c2ccccc12)C(=O)N[C@@H](CO)C(=O)N[C@@H](C)C(=O)N[C@@H](C)C(=O)N[C@@H](CCCCN)C(=O)NCC(=O)N[C@@H](C)C(=O)N[C@@H](Cc1ccccc1)C(=O)N[C@@H](C)C(=O)O
EC50 (HEK293 cells; intracellular calcium, FLIPR; 0.1% BSA): 86.9 ± 12.1 µM

CC[C@H](C)[C@H](NC(=O)[C@H](CCCCN)NC(=O)[C@H](CCCCN)NC(=O)[C@H](C)NC(=O)[C@H](CC(C)C)NC(=O)[C@H](C)NC(=O)[C@H](C)NC(=O)[C@H](CC(C)C)NC(=O)[C@H](C)NC(=O)[C@H](CC(=O)O)NC(=O)[C@H](CC(C)C)NC(=O)[C@H](CC(N)=O)NC(=O)[C@@H](NC(=O)[C@H](CC(=O)O)NC(=O)CNC(=O)[C@H](CC(C)C)NC(=O)[C@H](CC(C)C)NC(=O)[C@H](Cc1c[nH]c2ccccc12)NC(=O)CNC(=O)[C@H](C)N)[C@@H](C)CC)C(=O)N[C@@H](CC(C)C)C(N)=O
EC50 (sheep erythrocytes; turbidity; pH 7.5): 45 ± 0.05 µM

CC1(C)[C@H](C(=O)O[C@H](C#N)c2cccc(Oc3ccccc3)c2)[C@@H]1C=C(Br)Br
EC50 (Caco-2; viability, MTT; 72 h): 191 ± 5.5 µM

CC[C@H](C)[C@H](NC(=O)[C@H](Cc1c[nH]c2ccccc12)NC(=O)[C@H](CCCCN)NC(=O)[C@@H](NC(=O)[C@H](CC(C)C)NC(=O)[C@H](CC(=O)O)NC(=O)CNC(=O)[C@@H](NC(=O)[C@@H](NC(=O)[C@H](CO)NC(=O)[C@@H](NC(=O)[C@@H](NC(=O)[C@H](CC(=O)O)NC(=O)[C@H](CCC(N)=O)NC(=O)[C@H](C)NC(=O)[C@H](CCSC)NC=O)[C@@H](C)CC)[C@@H](C)CC)[C@@H](C)O)[C@@H](C)CC)C(C)C)C(=O)N[C@H](C(=O)N[C@@H](CC(=O)O)C(=O)N[C@H](C(=O)N[C@H](C(=O)N[C@@H](CC(N)=O)C(=O)N[C@@H](CCCCN)C(=O)N[C@@H](Cc1ccccc1)C(=O)N[C@H](C(=O)N[C@@H](CCCCN)C(=O)N[C@@H](CCCCN)C(=O)O)[C@@H](C)O)C(C)C)[C@@H](C)O)[C@@H](C)CC
EC50 (sheep erythrocytes; turbidity; pH 7.5): 12.7 ± 2.4 µM

CCCCCC(CC(=O)CCc1ccc(O)c(OC)c1)SC[C@H](NC(=O)CC[C@H](N)C(=O)O)C(=O)NCC(=O)O (stereo partly drawn)
EC50 (Caco-2/BBe, 3D spheroids; cytotoxicity, ATP content; 11 days): 182 µM

CC[C@H](C)[C@H](NC(=O)[C@H](CC(C)C)NC(=O)CNC(=O)[C@@H]1CCCN1C(=O)[C@H](CC(C)C)NC(=O)[C@H](C)NC(=O)[C@H](CCCCN)NC(=O)CNC(=O)[C@H](CC(C)C)NC(=O)[C@H](CCSC)NC(=O)[C@H](CCCCN)NC(=O)[C@H](C)NC(=O)[C@H](C)NC(=O)[C@H](C)NC(=O)CNC(=O)[C@H](Cc1c[nH]c2ccccc12)NC(=O)[C@@H](N)Cc1ccccc1)C(=O)N[C@@H](CO)C(=O)N[C@@H](CCSC)C(=O)N[C@@H](Cc1ccccc1)C(=O)N[C@@H](CCC(N)=O)C(=O)N[C@@H](CCCCN)C(=O)N[C@@H](CC(N)=O)C(=O)O
EC50 (F11 cells; intracellular calcium, FLIPR; 0.1% BSA): 0.9 to 1.5 µM and 1.35 µM

COP(=S)(OC)Oc1ccc([N+](=O)[O-])c(C)c1
EC50 (Caco-2; viability, MTT; 168 h): 25.6 ± 0.8 µM

CN[C@H](CC(=O)O)C(=O)O
EC50 (cerebellar granule cells; cell viability increase, MTT; 16 h, K5 medium): 106 µM

CC[C@H](C)[C@H](NC(=O)[C@H](CCCCN)NC(=O)[C@H](CC(C)C)NC(=O)[C@H](CC(C)C)NC(=O)[C@H](C)NC(=O)CNC(=O)[C@H](CC(C)C)NC(=O)[C@@H](N)Cc1ccccc1)C(=O)NCC(=O)N[C@@H](C)C(=O)N[C@@H](CCCCN)C(=O)N[C@@H](CC(C)C)C(=O)N[C@@H](CC(C)C)C(=O)N1CCC[C@H]1C(=O)N[C@@H](CO)C(=O)N[C@H](C(=O)N[C@H](C(=O)NCC(=O)N[C@@H](CC(C)C)C(=O)N[C@@H](Cc1ccccc1)C(=O)N[C@@H](CCCCN)C(=O)N[C@@H](CCCCN)C(=O)N[C@@H](CCCCN)C(=O)N[C@@H](CCC(N)=O)C(=O)N[C@@H](CCC(N)=O)C(=O)O)C(C)C)C(C)C
EC50 (HEK293 cells; intracellular calcium, FLIPR; 0.1% BSA): 0.89 ± 0.05 µM

CC1(C)[C@H](C(=O)O[C@H](C#N)c2cccc(Oc3ccccc3)c2)[C@@H]1/C=C(\Cl)C(F)(F)F (racemic)
EC50 (Caco-2; viability, MTT; 240 h): 59.5 ± 2.3 µM

For quick reference, copied from above:
CN[C@H](CC(=O)O)C(=O)O
EC50 (cerebellar granule cells; cell viability increase, MTT; 16 h, K5 medium): 106 µM

CC[C@H](C)[C@H](NC(=O)[C@H](CCCCN)NC(=O)[C@H](CC(C)C)NC(=O)[C@H](CC(C)C)NC(=O)[C@H](C)NC(=O)CNC(=O)[C@H](CC(C)C)NC(=O)[C@@H](N)Cc1ccccc1)C(=O)NCC(=O)N[C@@H](C)C(=O)N[C@@H](CCCCN)C(=O)N[C@@H](CC(C)C)C(=O)N[C@@H](CC(C)C)C(=O)N1CCC[C@H]1C(=O)N[C@@H](CO)C(=O)N[C@H](C(=O)N[C@H](C(=O)NCC(=O)N[C@@H](CC(C)C)C(=O)N[C@@H](Cc1ccccc1)C(=O)N[C@@H](CCCCN)C(=O)N[C@@H](CCCCN)C(=O)N[C@@H](CCCCN)C(=O)N[C@@H](CCC(N)=O)C(=O)N[C@@H](CCC(N)=O)C(=O)O)C(C)C)C(C)C
EC50 (HEK293 cells; intracellular calcium, FLIPR; 0.1% BSA): 0.89 ± 0.05 µM
